Experimental data collected from several papers.
Target: Histamine H3 receptor (HRH3, Homo sapiens, UniProt Q9Y5N1)
Sequence of UniProt Q9Y5N1 (whole entry, looked up): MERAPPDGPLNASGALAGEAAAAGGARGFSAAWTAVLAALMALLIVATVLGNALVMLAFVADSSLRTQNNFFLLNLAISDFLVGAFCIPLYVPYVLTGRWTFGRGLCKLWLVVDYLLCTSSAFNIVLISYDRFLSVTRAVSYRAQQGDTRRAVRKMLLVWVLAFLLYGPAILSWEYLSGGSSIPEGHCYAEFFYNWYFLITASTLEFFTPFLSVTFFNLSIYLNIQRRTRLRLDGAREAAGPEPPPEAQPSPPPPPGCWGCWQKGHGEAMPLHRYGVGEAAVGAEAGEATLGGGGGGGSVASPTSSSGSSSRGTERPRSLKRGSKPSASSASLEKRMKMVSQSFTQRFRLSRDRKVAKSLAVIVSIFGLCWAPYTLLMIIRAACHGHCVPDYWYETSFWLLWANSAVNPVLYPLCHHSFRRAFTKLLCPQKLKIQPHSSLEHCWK

Compound	test	system	conditions	inhibition [%]
COc1ccc(C(=O)Nc2c(-c3cccs3)nc3ccccn23)cc1	ligand displacement, radioligand	–	10 µM	< 50
Cn1ccc2cc(-n3c(=O)[nH]c4sc5c(c4c3=O)CCCC5)ccc21	cell-free assay, radioligand	–	10 µM	6
Brc1ccccc1-c1nnc(CSc2nnnn2-c2ccccc2)o1	ligand displacement, radioligand	–	10 µM	-15
COCC(=O)N1CCc2cc(-c3csc(NC(=O)c4cc(OC)cc(OC)c4)n3)ccc21	ligand displacement, radioligand	–	10 µM	0
O=C1c2sc(-c3ccc(N4CCC(F)C4)nc3F)nc2CCN1c1cccnc1 (centres unmarked)	ligand displacement, radioligand	–	1 µM	23
Cc1[nH]nc2c1N=C(c1ccccc1Cl)c1cnc(N3CCOCC3)cc1N2	cell-free assay	–	10 µM	5
C[Si](C)(C)C[C@@H](CN)CC(=O)O	ligand displacement, radioligand	–	75 µM	-18
CNC(=O)C[C@H](Cc1ccc(C#N)cc1)NC(=O)c1cc(-c2ccc(CN[C@H](C)c3ccc(C)cc3)o2)ccc1Cl	agonist response, antagonist	human cells	10 µM, H3 antagonist	10

Some of these lines once more:
Compound	test	system	conditions	inhibition [%]
CNC(=O)C[C@H](Cc1ccc(C#N)cc1)NC(=O)c1cc(-c2ccc(CN[C@H](C)c3ccc(C)cc3)o2)ccc1Cl	agonist response, antagonist	human cells	10 µM, H3 antagonist	10
